Experimental data collected from several papers.
Numbered parts are unrelated; each lists some results of a single study.

Series 1 — method: aptamer microarray, sandwich; form: DNA with 2'F-ANA; matrix: in vitro; concentration: 200 nM; added: Cy3 exosite-II aptamer, 400 nM; direction: higher = stronger binding; strand: GGTTGGTGTGGTTGG
Target: Prothrombin, mature alpha-thrombin (F2, Homo sapiens, UniProt P00734)
Setting: whole 15-mer aptamer, many near background
| Modification | mean fluorescence intensity [a.u.] |
| --- | --- |
| 2'F-ANA at 1 2 4 7 9 10 12 | 64.2 |
| 2'F-ANA at 1 2 5 7 8 11 12 | 104 |
| 2'F-ANA at 1 2 3 4 8 9 11 14 15 | 103 |
| 2'F-ANA at 1 3 4 5 6 7 9 12 13 15 | 108 |
| 2'F-ANA at 1 3 4 5 7 9 10 13 15 | 45.3 |
| 2'F-ANA at 1 2 4 5 7 8 9 10 12 13 14 15 | 50.6 |
| 2'F-ANA at 3 5 6 11 12 13 | 156 |
| 2'F-ANA at 2 3 4 5 8 9 10 12 13 15 | 49.6 |
| 2'F-ANA at 1 2 7 8 10 11 14 | 48.4 |
| 2'F-ANA at 3 4 5 6 12 14 | 52.3 |
| 2'F-ANA at 2 3 9 10 | 412 |
| 2'F-ANA at 1 3 9 10 11 12 13 15 | 105 |
| 2'F-ANA at 4 7 9 12 13 15 | 331 |
| 2'F-ANA at 1 3 4 6 8 9 11 13 14 15 | 61.2 |
| 2'F-ANA at 2 3 4 6 9 10 11 12 13 14 | 131 |
| 2'F-ANA at 1 2 3 5 6 7 11 12 13 14 | 47.1 |
| 2'F-ANA at 1 5 7 8 9 10 11 12 | 63.9 |
| 2'F-ANA at 1 2 3 4 10 12 13 15 | 88.6 |
| 2'F-ANA at 4 6 7 8 11 15 | 283 |
| 2'F-ANA at 1 2 3 4 5 8 9 10 | 49.4 |
| 2'F-ANA at 4 7 9 11 14 | 86.3 |
| 2'F-ANA at 1 3 6 8 9 11 12 13 14 15 | 122 |
| 2'F-ANA at 3 4 5 8 9 10 15 | 49.3 |
| 2'F-ANA at 2 5 6 9 12 13 14 15 | 48.7 |
| 2'F-ANA at 2 3 4 7 8 10 13 14 15 | 190 |

Series 2 — method: RNA Bind-n-Seq; form: RNA; matrix: in vitro; concentration: 365 nM; reference: no-protein control; direction: higher = stronger binding
Target: RNA binding protein fox-1 homolog 2, RRM domain, GST-SBP tag (RBFOX2, Homo sapiens, UniProt O43251-10, residues 100-194)
Setting: natural RNA segment, single round, ends assumed
Construct (chain): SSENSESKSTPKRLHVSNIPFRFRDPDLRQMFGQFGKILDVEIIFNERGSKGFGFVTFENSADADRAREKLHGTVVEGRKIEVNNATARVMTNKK
| Strand | RBNS enrichment (R) |
| --- | --- |
| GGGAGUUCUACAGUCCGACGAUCAUUCAAAAUUUGACAUGCUGUUUGUUUAGUCACUACAGUGCCCUCAAAGGGCAGACAUUGCAGCCUUUUUAUAUUGCCUGCCAAAAUUUGAAGUAUUAGAACAAAGUGUGUGGAAUUCUCGGGUGCCAA | 0.278 |
| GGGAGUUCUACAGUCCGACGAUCCACAUAAACAUAAUUACCAAUAAUAAAAAAUUUAAAUGAGUUAUCAAAGGCGAUUUAUCACAUGUAUAGAACAGGCCAAGUGUAGAAAAACAUAGAAGUCAUUGUUAGUCUGGAAUUCUCGGGUGCCAA | 0.256 |
| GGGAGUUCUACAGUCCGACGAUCGGUUGCAGUGAGCUGAGACUGUGCCAUUGCACUCCAGUCGGGUUAACAGAGCAAGACACUGUCUCAAAAAAAAAAAAAAAAAAAAGUAUCAACCAACAAAUGUUACCAAGUGGAAUUCUCGGGUGCCAA | 0.606 |
| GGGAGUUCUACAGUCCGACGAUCUGAAGGAGAUGGCCAGGCUCCUGGGAGCACUAGCGGCGGAGCCACUGCACCAGGCUGCUGCUUUGUUGUCUGUCUGCUGCCCGUCCCUCCCUGCAGGCCGCAUCAUGGUGUGGAAUUCUCGGGUGCCAA | 0.749 |
| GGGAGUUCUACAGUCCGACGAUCUUAAAGAUGACUUAUAAGAACCCUGAAAUUUAUAUAGGUGAGACAAUAGAAAUAAAAAGAUCUUCAGCCAGGCCUUUCUGAAGGAGUUAUUCUGCUAAAAAUGGUCUUAGUGGAAUUCUCGGGUGCCAA | 0.964 |
| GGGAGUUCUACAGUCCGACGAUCAAUAGAGAUUUACUUUAGGGGUCCCAUGGUUGGUAGCCCACAGCUUCUUCUAAAGGGCAUUGGCCUCUCAGGUGAACUUGCAGAGACUUGGCCAAAUUUGCUUCCUCUUUUGGAAUUCUCGGGUGCCAA | 0.315 |
| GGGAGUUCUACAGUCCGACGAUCUCCUACCUUGCUUUCUAGAAAGGCUUUUGCUCCAUACUUCCCUUAAUCUCAGAAUGGAUGGAAAAGAGGAAGACAUUAGGGACUGUCAGGUCCAUUUAAAGAGGAAAUUAUGGAAUUCUCGGGUGCCAA | 0.972 |
| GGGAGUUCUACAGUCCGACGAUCACUAUAUUUCUCAAUCGGACCUCAGGCAAGAUGGCCAUCCCUGUGCUGUGGGAGUUUCUAGAGAAGUACCCUUCAGCUGAAGUGGCCCGAGCUGCCGACUGGAGGGACGUUGGAAUUCUCGGGUGCCAA | 0.513 |
| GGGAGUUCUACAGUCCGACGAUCUUUUUCUGCCAAAAGGAGCCUACAUUUAUAAUGCACUUAUUGAAUUCAUUAGGGGCGAAUAUAGGAAAAGAGGAUUCCAGGAGGUAGUCACCCCAAACAUCUUCAACAGCUGGAAUUCUCGGGUGCCAA | 0.783 |
| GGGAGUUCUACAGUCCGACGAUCGAAUGUGAUGGGACUUAAAAGAAGUGAACUGAGACAAUUCACUCUGGCUGUUUGAACAGCAGCGUUUCAUAGGAAGAGAAAAAAAGAUCAAUCUUGUAUUUUCUGACCACUGGAAUUCUCGGGUGCCAA | 0.428 |
| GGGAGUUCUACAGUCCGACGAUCUGUCAGUUUUCUAUUUGCCCUCUUGAGUACAGGGAUGGAUGGAUGGCUGCUCAACACACUCCUCCCCUCUCUCCUUUAAGCUGUGUCCAGUGAAAGCUGUCCUUCCUGUAUGGAAUUCUCGGGUGCCAA | 0.461 |
| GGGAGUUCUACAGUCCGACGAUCCCUGCGCUCUGCCACUGUCCGGAAAUUCAUGGUUGGCUACGAAAUGCUUGCUCAGGCUCAGAGGGACCUCACCCCUGAGCAGGCUGCAGAGAGACUAAGGGCACUUCCUGUGGAAUUCUCGGGUGCCAA | 0.23 |

Series 3 — method: protein binding microarray; form: double-stranded DNA, one strand shown; matrix: in vitro; concentration: not given; reference: not given; direction: higher = stronger binding
Target: Histone acetyltransferase KAT6A, both winged helices, GST fusion (KAT6A, Homo sapiens, UniProt Q92794, residues 1-181)
Setting: 8-mer, flanks averaged, mean of 2 arrays, mostly near background
Residues (chain): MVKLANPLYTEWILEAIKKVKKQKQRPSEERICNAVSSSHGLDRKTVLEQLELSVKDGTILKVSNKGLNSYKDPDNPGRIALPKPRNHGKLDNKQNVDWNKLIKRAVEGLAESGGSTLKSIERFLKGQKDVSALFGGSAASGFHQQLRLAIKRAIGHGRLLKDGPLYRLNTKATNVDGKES
| Strand | E-score |
| --- | --- |
| GAGATCAC | -0.122 |
| ATACCCCA | -0.183 |
| AGTCTGCC | -0.106 |
| CACTGGTA | -0.193 |
| GGTCTTGA | -0.0169 |
| GCAGGTAC | -0.0739 |
| ACCCAACC | -0.137 |
| GTTTGGCA | -0.158 |
| AGCGTGAA | 0.0355 |
| AAAACTTC | -0.0172 |
| GGAATAAC | 0.0345 |
| AGACCCAA | -0.169 |
| AAGCCGTC | 0.315 |
| GTTCCCAA | -0.0685 |
| AGCTGCTG | -0.204 |
| AGGCACAA | -0.123 |
| GAGCAGGC | -0.00276 |
| CTCCTAGA | -0.166 |
| CCCTGACA | -0.263 |
| CAAGCTTC | -0.0411 |
| GTCGTGCA | -0.157 |
| AAACACGG | 0.219 |
| GACCCGCA | 0.183 |
| CTATCCGA | -0.0696 |
| AATGGGCG | 0.00393 |

Series 4 — method: universal PBM; form: double-stranded DNA, one strand shown; matrix: in vitro; concentration: not given; direction: higher = stronger binding
Target: Sal-like protein 4, full length isoform B (SALL4, Homo sapiens, UniProt Q9UJQ4-2, residues 1-616)
Setting: 8-mer, flanks averaged, mean of replicates
Target sequence (chain): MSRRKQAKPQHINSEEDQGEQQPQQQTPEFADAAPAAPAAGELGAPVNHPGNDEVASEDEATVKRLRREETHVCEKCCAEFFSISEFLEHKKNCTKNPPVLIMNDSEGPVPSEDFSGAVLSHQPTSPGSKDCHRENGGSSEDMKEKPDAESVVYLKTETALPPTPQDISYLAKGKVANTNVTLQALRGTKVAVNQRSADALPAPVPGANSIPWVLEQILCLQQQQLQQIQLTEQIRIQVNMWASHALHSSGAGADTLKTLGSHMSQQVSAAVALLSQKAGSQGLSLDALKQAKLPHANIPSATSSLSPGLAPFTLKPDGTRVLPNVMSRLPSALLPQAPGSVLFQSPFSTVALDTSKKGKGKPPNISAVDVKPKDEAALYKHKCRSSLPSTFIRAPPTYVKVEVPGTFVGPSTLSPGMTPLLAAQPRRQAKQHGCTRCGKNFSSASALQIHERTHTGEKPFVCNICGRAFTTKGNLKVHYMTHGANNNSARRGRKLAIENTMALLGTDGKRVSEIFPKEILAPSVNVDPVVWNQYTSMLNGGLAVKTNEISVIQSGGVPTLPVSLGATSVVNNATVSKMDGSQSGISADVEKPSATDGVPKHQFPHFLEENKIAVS
| Strand | E-score |
| --- | --- |
| ACAGAGGG | -0.283 |
| CTCTTCTC | -0.0606 |
| AAGGGATG | -0.0311 |
| AAACTGTA | 0.28 |
| AAAGTTGT | 0.23 |
| CAGCAGTC | -0.186 |
| AATGGGGA | -0.079 |
| ACCTCAAA | 0.128 |
| CGAACCGA | -0.112 |
| AAGTTATG | 0.338 |
| CGCGTTTA | 0.183 |
| CTACTAGC | 0.0429 |
| CACTATTC | 0.13 |
| AGTCCCAG | -0.236 |
| ACAAACAA | 0.186 |
| CAACTACA | 0.215 |

Repeated from above (series 1):
| Modification | mean fluorescence intensity [a.u.] |
| --- | --- |
| 2'F-ANA at 1 2 5 7 8 11 12 | 104 |
| 2'F-ANA at 1 2 3 4 8 9 11 14 15 | 103 |
| 2'F-ANA at 1 3 4 5 6 7 9 12 13 15 | 108 |
| 2'F-ANA at 1 3 4 5 7 9 10 13 15 | 45.3 |
| 2'F-ANA at 1 2 4 5 7 8 9 10 12 13 14 15 | 50.6 |
| 2'F-ANA at 3 5 6 11 12 13 | 156 |
| 2'F-ANA at 2 3 4 5 8 9 10 12 13 15 | 49.6 |
| 2'F-ANA at 1 2 7 8 10 11 14 | 48.4 |
| 2'F-ANA at 3 4 5 6 12 14 | 52.3 |
